# Published values of several laboratories.
# Each numbered part is a random draw from the data of one study; scales do not carry over between parts.

# Series 1 — technique: RNA Bind-n-Seq; form: RNA; sample: in vitro; tested at: 365 nM; baseline: no-protein control; direction: higher = stronger binding
# Target: RNA binding protein fox-1 homolog 2, RRM domain, GST-SBP tag (RBFOX2, Homo sapiens, UniProt O43251-10, residues 100-194)
# Notes: natural RNA segment, single round, ends assumed
# Target sequence (chain): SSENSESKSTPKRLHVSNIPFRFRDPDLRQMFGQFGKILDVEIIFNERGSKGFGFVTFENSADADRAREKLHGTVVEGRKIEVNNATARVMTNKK
Strand,RBNS enrichment (R)
GGGAGUUCUACAGUCCGACGAUCAUCCCCUGGGCAGGGGGCGACAACUCCGUGUAGCAUUAACCCCCGUGGCGGGGUCCGCUGCUGGUCUAAUUUGGACCCCCUGCCUCUCAGUGCCCCUGCCCUAGGGGUGUUGGAAUUCUCGGGUGCCAA,0.345
GGGAGUUCUACAGUCCGACGAUCUUGUUGGGAGUGCUUUAUUUUUUAAAAGCAAACCUAAAUGAAACUAUUUUUCCCCUUAAAAUAGGAGAGAGCCAAAAUUGACCAAGGGUAUUCUGCAGCGAACCGGAGACUGGAAUUCUCGGGUGCCAA,0.398
GGGAGUUCUACAGUCCGACGAUCCAUUUCAUUUGUUAAUUUAGUUGUGUGUGUGUGUUAAAAGGAGCUAAUGCUUAUUCUGUUAAUGUAAACUUUUGAAGAUCUUAAGUGUAUUGCUCUUUCAUCUUAAACACUGGAAUUCUCGGGUGCCAA,0.687
GGGAGUUCUACAGUCCGACGAUCUUUUUUCUUUUGUGGACCACAGGAAGGAAGAUUUAUUUUGAUAUUGAUACUUUAAAAGGACUUUAUAUUUGUAACAUUGAUGUUAACCAGUUUAUUAGUUUAAAUCAGUAUGGAAUUCUCGGGUGCCAA,0.568

# Series 2 — technique: universal PBM; form: double-stranded DNA, one strand shown; sample: in vitro; tested at: not given; direction: higher = stronger binding
# Target: Sal-like protein 4, full length isoform B (SALL4, Homo sapiens, UniProt Q9UJQ4-2, residues 1-616)
# Notes: 8-mer, flanks averaged, mean of replicates
# Construct (chain): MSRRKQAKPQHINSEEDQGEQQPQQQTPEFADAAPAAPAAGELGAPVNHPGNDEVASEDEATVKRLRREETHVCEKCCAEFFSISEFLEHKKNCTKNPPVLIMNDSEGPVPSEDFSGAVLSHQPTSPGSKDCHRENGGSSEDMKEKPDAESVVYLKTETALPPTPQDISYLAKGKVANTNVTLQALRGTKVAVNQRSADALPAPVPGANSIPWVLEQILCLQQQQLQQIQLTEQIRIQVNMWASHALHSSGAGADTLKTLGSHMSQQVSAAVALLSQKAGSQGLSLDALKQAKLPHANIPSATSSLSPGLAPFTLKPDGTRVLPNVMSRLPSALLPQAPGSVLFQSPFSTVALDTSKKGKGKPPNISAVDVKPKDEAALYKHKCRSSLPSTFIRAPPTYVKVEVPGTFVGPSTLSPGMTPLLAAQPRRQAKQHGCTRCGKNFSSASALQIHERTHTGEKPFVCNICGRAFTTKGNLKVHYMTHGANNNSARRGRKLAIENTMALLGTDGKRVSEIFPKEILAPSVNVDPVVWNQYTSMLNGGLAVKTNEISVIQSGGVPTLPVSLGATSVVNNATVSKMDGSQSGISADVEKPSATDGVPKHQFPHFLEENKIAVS
Strand,E-score
GGCTGGAC,-0.284
AGTACATC,0.172
AAGTGCGT,-0.045
CTGTTAAG,0.0593
ACTTCGTG,-0.184
AGTACTAC,0.145

# Series 3 — technique: protein binding microarray; form: double-stranded DNA, one strand shown; sample: in vitro; tested at: not given; baseline: not given; direction: higher = stronger binding
# Target: Histone acetyltransferase KAT6A, winged helix 1, GST fusion (KAT6A, Homo sapiens, UniProt Q92794, residues 1-85)
# Notes: 8-mer, flanks averaged, mean of 2 arrays, mostly near background
# Target sequence (chain): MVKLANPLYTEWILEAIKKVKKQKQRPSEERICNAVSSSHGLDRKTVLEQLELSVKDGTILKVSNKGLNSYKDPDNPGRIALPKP
Strand,E-score
AATTGAAA,-0.343
TACGGATA,0.131
AAGCTGGG,-0.175
ATACGGTG,0.179
GGCTCCCC,0.00683
CTAACTCC,-0.0308
AGTCCTTC,-0.129
CGCGGCCC,0.41
CATCGCAA,-0.00749
AATCCTAA,-0.00323

# Single results of other studies
Molecule,target,assay,test system,setting,how to read,measurement,result
"PhoQ, residues 284 288 289 292 302 303 TGYLSA","PhoP, residues 12 14 15 18 19 VQALL (Escherichia coli, UniProt P23836)","Sort-seq, item: YFP reporter",E. coli,"PhoQ-PhoP variant library, with: 10 µM Mg2+","baseline: high Mg2+ state, higher = stronger signaling",fold induction,11.8

# Excerpt of the above (series 2):
Strand,E-score
AGTACATC,0.172
AAGTGCGT,-0.045
CTGTTAAG,0.0593
